Measurements collected from several papers.
Protocols differ between the studies behind these lines. Several values in a cell are separate wells, animals, samples, runs or records. ± gives the spread as reported.

For CCOC(=O)C1=C(C)NC2=C(C(=O)CC(C)(C)C2)C1c1ccc(OCC(=O)NN=Cc2cccc(C=O)c2)cc1OCC(=O)NN=Cc1cccc(C=O)c1 (stereo not drawn), “inhibition zone diameter” read 4.3 ± 0.3 mm (Bacillus subtilis; ATCC 6337; concentration not given, 24 h).
The diaphorase activity of O=C(O)c1cccc(-c2cc(=O)n3nc(-c4ccco4)c(C4CC4)c3[nH]2)c1 is reported as 0.0542 OD/min and 0.0538 OD/min and 0.0532 OD/min (DCPIP reduction; K562 cell lysate; 10 µM, 60 min).
With COc1cc([C@@H]2c3cc4c(cc3[C@@H](OC3CCCCC3)[C@H]3COC(=O)[C@H]23)OCO4)cc(OC)c1OC the EC50 was over 100 µM (Leishmania infantum; iRFP fluorescence; mouse splenocytes infected, amastigote, iRFP, ex vivo splenic explant; 48 h).
COc1cc(-c2n[nH]c3ccc(/C=C(\C#N)C(=O)NC(C)(C)CO)cc23)cc(OC)c1OC: “duration of activity” 12 to 24 h (cell culture; concentration not given).
CCC1NC(=O)C(CCCNC(=N)N)NC(=O)C(C)(NC(=O)C(C)C)CCCCNC(=O)C(c2ccccc2)NC1=O (stereo not drawn): H3K4me2 level “no effect” (ChIP, refers to: Hoxa1-Hoxa6 loci; MLL-AF9 leukaemia cells, mouse; dose not given).
Cc1ncsc1-c1ccc([C@H](C)NC(=O)[C@@H]2C[C@@H](O)CN2C(=O)[C@@H](NC(=O)CCCCCCC(=O)N2CCN(C[C@]3(C)CCC(c4ccc(Cl)cc4)=C(CN4CCN(c5ccc(C(=O)NS(=O)(=O)c6ccc(N[C@H](CCN7CCOCC7)CSc7ccccc7)c(S(=O)(=O)C(F)(F)F)c6)cc5)CC4)C3)CC2)C(C)(C)C)cc1 — result for collagen deposition: “decreased” (STAM mice NASH-HCC model, liver; day 150, treated days 45-150).
Under “STAT1 Ser727 phosphorylation”, CN(C)C(=O)Cn1cc(-c2ccc(-c3cncc4ccncc34)cc2)cn1 is recorded as “decreased” (refers to: phospho-STAT1 Ser727; mouse C57BL/6, splenic NK1.1+ NK cells; oral, 75 mg/kg, single, 6 h).
For CCCCN(CCc1ccc(Cl)c(Cl)c1)C[C@H](O)COc1ccc(NS(C)(=O)=O)cc1, “infarct volume reduction” read 59% (mouse, transient MCAO; intracerebroventricular, dose not given, 20 min before occlusion; relative to: vehicle).
C[C@@H]1CN(C2CCC2)CC[C@H](O[C@H]2[C@@H](O)C[C@H](O[C@H]3[C@@H](O)C[C@H](O[C@H]4CC[C@@]5(C)[C@H](CC[C@@H]6[C@@H]5C[C@@H](O)[C@]5(C)[C@@H](C7=CC(=O)OC7)CC[C@]65O)C4)O[C@@H]3C)O[C@@H]2C)O1: “K+ decay time constant” 57 ± 8% (rat hippocampal slices; 10 µM, ~14 min, trace 2, with: electrical stimulation; relative to: pre-drug control).
With COC(=O)[C@@H]1C(c2nc3ccccc3s2)=Cc2cc3c(cc2[C@H]1c1cc(OC)c(OC)c(OC)c1)OCO3 the EC50 was 99.4 ± 6.3 µM (Leishmania infantum; iRFP fluorescence; mouse splenocytes infected, amastigote, iRFP, ex vivo splenic explant; 48 h).
CC(=NN=c1[nH]c2cc(F)c(F)cc2n1C)c1ccc(F)cn1 has a proliferating cells of about 23% (refers to: Ki67; MDA-MB-231 xenograft, SCID mice; 10 mg/kg/day, end of treatment).
Cc1nn(C)c2c(C(C(=O)O)N3CC(OCCCCc4ccc5c(n4)NCCC5)C3)cccc12 (stereo not drawn): “pulmonary vascular remodelling” “decreased” (refers to: small PA medial wall thickness; rat, Sugen/hypoxia model; relative to: vehicle or IgG).
